Measurements collected from several papers.
Protocols differ between the studies behind these lines. Several values in a cell are separate wells, animals, samples, runs or records. ± marks the error that the study gave.
CASP10: Caspase-10 (CASP10, Homo sapiens, UniProt Q92851)
Sequence of UniProt Q92851 (whole entry, looked up): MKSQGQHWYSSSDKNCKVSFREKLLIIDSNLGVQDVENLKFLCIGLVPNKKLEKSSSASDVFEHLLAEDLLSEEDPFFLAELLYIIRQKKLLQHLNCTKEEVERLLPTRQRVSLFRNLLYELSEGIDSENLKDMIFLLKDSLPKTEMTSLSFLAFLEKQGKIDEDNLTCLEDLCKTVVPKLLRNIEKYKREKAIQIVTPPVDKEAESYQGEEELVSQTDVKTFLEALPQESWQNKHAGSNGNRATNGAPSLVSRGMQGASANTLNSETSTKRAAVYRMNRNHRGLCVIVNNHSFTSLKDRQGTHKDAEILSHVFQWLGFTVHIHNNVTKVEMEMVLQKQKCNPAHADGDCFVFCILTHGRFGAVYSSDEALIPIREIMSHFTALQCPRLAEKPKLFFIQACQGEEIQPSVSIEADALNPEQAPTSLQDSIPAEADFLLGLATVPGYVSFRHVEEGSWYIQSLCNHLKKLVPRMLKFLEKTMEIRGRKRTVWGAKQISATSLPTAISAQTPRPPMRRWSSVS
DRD4: D(4) dopamine receptor (DRD4, Homo sapiens, UniProt P21917)
Sequence of UniProt P21917 (whole entry, looked up): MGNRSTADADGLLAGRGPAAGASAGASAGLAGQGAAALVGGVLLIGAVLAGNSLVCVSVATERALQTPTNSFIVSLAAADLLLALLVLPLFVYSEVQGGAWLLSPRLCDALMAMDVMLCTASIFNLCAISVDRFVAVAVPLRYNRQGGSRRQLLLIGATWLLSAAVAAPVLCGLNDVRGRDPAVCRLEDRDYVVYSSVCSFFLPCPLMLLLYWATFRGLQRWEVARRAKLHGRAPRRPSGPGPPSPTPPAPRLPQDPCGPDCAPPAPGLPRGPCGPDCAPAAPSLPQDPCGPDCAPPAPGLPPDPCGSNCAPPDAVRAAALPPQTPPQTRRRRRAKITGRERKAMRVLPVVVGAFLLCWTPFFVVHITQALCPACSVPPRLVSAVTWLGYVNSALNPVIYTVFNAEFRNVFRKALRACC

For Cc1ccc([N+](=O)[O-])cc1S(=O)(=O)N(C)/N=C/c1cnc2ccc(Br)cn12, the activation z-score was 1.15 (HuT78; Wnt/beta-catenin signalling, NanoString IPA; 50 nM, 10 h; direction not given).
With CCOc1cncc(-c2ccc(NC(=O)C3(c4ccnc(NS(=O)(=O)C5CC5)n4)CCOCC3)nc2)n1 the IC50 was 33 nM (HuT78; cell growth or viability, ATP luminescence; 72 h).
Under “log2 fold change”, C[C@@H]1Cc2c([nH]c3ccccc23)[C@@H](c2c(F)cc(/C=C/C(=O)O)cc2F)N1C12CC(C1)C2 is recorded as -1.02 (MCF7; RNA-seq, refers to: RET mRNA; 1 µM, 24 h, E2-induced gene; relative to: DMSO vehicle).
For O=C(C[Se]C(=O)c1ccc2ccccc2n1)Nc1cccc(C(F)(F)F)c1, “mean growth percent” read -86.8% (NCI60 ovarian subpanel; cell growth; 10 µM, 48 h, one-dose).
Cc1[nH]c(=S)[nH]c(=O)c1/N=N/c1nnc(S)[nH]1 has an inhibition of 19.5 ± 2.91% (Vero; cell viability, MTT; 10.0 µg/mL).
With NC1=C(Cl)C(=O)c2cccc([N+](=O)[O-])c2C1=O the selectivity index was 2.31 (MOLT-3; XTT; relative to: IC50 MRC-5 over IC50 MOLT-3).
CC[C@H](NC(=O)[C@@H](NC(=O)[C@H](CC(=O)O)NC(C)=O)[C@@H](C)O)C(=O)N[C@@H](CC(=O)O)C(=O)COC(=O)c1c(C)cccc1C has a kinact/KI of 122000 M⁻¹ s⁻¹ (CASP10; enzyme activity, inhibitor).
The T-cell proliferation of CN(C)Cc1nc(Nc2ccc(-c3cnc4cc(F)ccn34)c3c2C(=O)NC3)ccc1C1CCOC1 (centres unmarked) is reported as at most 2.5 fold (mouse BMDC with OT-1 T cells; dose not given, 5 days, added: OVA; relative to: DMSO).
COC(=O)c1cc(NC2=NC(=O)C(=Cc3ccc(N(C)C)cc3)S2)ccc1OC(C)=O has a metabolite level of 0.07 fold change (MCF7; GC-MS, refers to: Pyroglutamic acid; 1 µM; relative to: DMSO).
The GI50 of CCN(C(=O)c1cc(F)ccc1Oc1nncnc1N1CCC2(C1)CN([C@H](CCCN(C)CCOC)C(C)C)C2)C(C)C is reported as over 10000 nM (SF-295; brain; 72 h).
The remaining binding of Nc1ncc(-c2cc(-c3cnn(CC(F)(F)F)c3)ncc2F)nc1C(=O)NC1CNCC(F)C1 (centres unmarked) is reported as 82% (ASK2; KINOMEscan; 1 µM; relative to: DMSO control).
[2H]C([2H])([2H])C1(C([2H])([2H])[2H])NC(=O)N(c2ccc(F)c(C(C)(F)F)c2)C1=O — result for mRNA level: “no effect” (LAPC4; refers to: KLK3, FKBP5, ZFP36L1; up to 10 µM, added: DHT).
For CN(C)CCN1CCN(c2ccc3nc(-c4ccc5nc(-c6ccc(C(F)(F)F)cc6)[nH]c5c4)[nH]c3c2)CC1, the growth percent was 60.7% (SF-295; SRB; 10 µM, 48 h).
CNS(=O)(=O)Nc1nccc(Cc2c(C)c3ccc(Oc4ncccc4F)cc3oc2=O)c1F gave an IC50 of 2.8 nM (CoCM-1; cell viability; 7 days).
CSCC[C@H](NC=O)C(=O)N[C@@H](CCCNC(=N)N)C(=O)N[C@H](C(=O)NCC(=O)N[C@@H](CC(N)=O)C(=O)N[C@@H](C)C(=O)N[C@@H](CC(N)=O)C(=O)NCC(=O)NCC(=O)N[C@@H](CCCCNC(=S)Nc1ccc2c(c1)C(=O)OC21c2ccc(O)cc2Oc2cc(O)ccc21)C(=O)O)[C@@H](C)O: “fluorescence intensity increase” 11 fold (Escherichia coli BL21(DE3); confocal fluorescence microscopy; 1 µM, 3 h, FITC-labelled; relative to: control).
Cn1ncc2cc(-c3cncc(Cl)c3N3CCC4(CCNC4=O)CC3)ccc21: “log2 fold change” 1.91 (LS174T; gene expression, microarray, refers to: VLDLR mRNA; concentration not given, 4 h; relative to: untreated cells).
Under “mean growth percent”, O=C(C[Se]C(=O)c1cc2ccccc2[nH]1)Nc1cccc(C(F)(F)F)c1 is recorded as -79.1% (NCI60 ovarian subpanel; cell growth; 10 µM, 48 h, one-dose).
CC(=O)N[C@@H](CC(=O)O)C(=O)N[C@@H](CCC(=O)O)C(=O)N[C@H](C(=O)N[C@@H](CC(=O)O)C(=O)COC(=O)c1c(C)cccc1C)[C@@H](C)OCc1ccccc1 gave a kinact/KI of 167000 M⁻¹ s⁻¹ (CASP10; enzyme activity, inhibitor).
CC(C)c1ccc(N(C)c2ccc3c(c2)OCC[C@H]3CNc2cnccc2C(=O)O)cc1 has an IC50 of 6.85 nM (NCI-H524; cell growth or viability, ATP luminescence; 7 days).
For O=C(C[Se]C(=O)c1cc2ccccc2s1)Nc1cccc(C(F)(F)F)c1, the GI50 was 1540 nM (NCI60 ovarian subpanel; cell growth, inhibitor; five-dose).
With O=C(NCc1cc(F)cc(F)c1)[C@@]1(O)CCN(c2ccc3[nH]ccc3c2)C1=O the maximal inhibition was 37% (Breast PDX-derived tumour cells; colony formation, soft agar clonogenic; concentration not given, 8-10 days).
Cc1ncsc1-c1ccc(C(C)NC(=O)C2CC(O)CN2C(=O)C(NC(=O)CCCCCCCCCCN2CCCC(Nc3ncc(Cl)c(Nc4ccccc4S(=O)(=O)C(C)C)n3)C2)C(C)(C)C)cc1 (centres unmarked): “log2 fold change” -1.93 (22Rv1; RNA-seq, refers to: TCEANC2 mRNA; concentration not given; relative to: DMSO).
The Ki of N#Cc1ccc(OCC2CN(Cc3cn4nc(Cl)ccc4n3)CCC2(F)F)cc1F (centres unmarked) is reported as 16.4 nM (DRD4; ligand displacement, radioligand; cell membranes).
For CC(C)Cc1ccc(C(C)C(=O)[Se]CC(=O)Nc2cccc(C(F)(F)F)c2)cc1 (centres unmarked), “mean growth percent” read -90% (NCI60 non-small-cell lung subpanel; cell growth; 10 µM, 48 h, one-dose).
With CCN(CC)CC(=O)Nc1cccc(-n2cc(-c3ccc4ccc(-c5cn(-c6cccc(NC(=O)CN(CC)CC)c6)nn5)cc4c3)nn2)c1 the fold regulation was -2.32 (RCC4; PCR angiogenesis array, refers to: SERPINE1; 5 x IC50, 6 h, normoxia; relative to: untreated).
For O=C(C[Se]C(=O)c1ccccc1Nc1cccc(C(F)(F)F)c1)Nc1cccc(C(F)(F)F)c1, the GI50 was 1890 nM (NCI60 ovarian subpanel; cell growth, inhibitor; five-dose).
O=C(Nc1nnc2c1c(-c1ccc(Cl)cc1)nc1sc(=Cc3ccco3)c(=O)n12)c1ccccc1 (mixture of isomers) gave a cell growth of 34% (UACC-62; SRB; 10 µM, NCI60 single-dose screen; relative to: untreated).
For CO[C@@H]1[C@@H](OC(N)=O)[C@@H](O)[C@H](Oc2ccc3c(O)c(NC(=O)c4ccc(O)c(CC=C(C)C)c4)c(=O)oc3c2C)OC1(C)C, the colony survival was 90.7% (HCT-116 BRCA2 wild-type; 75 µM, replicate A; relative to: untreated).
For CCCC(CCC)C(=O)OCc1cn(-c2cc3ccccc3oc2=O)nn1, the growth was 96.8% (IGROV-1; NCI60 single dose; 10 µM).
The inhibition of Nc1ncn([C@@H]2O[C@H](CO)[C@@H](O)[C@H]2O)c(=O)n1 is reported as 0% (AML blasts, primary, RUNX1-mutated; CD34+ blast expansion; 90 nM, HUVEC co-culture).
Under “log2 fold change”, CN1CCCNC(=O)c2cccc(c2)C(=O)NCCCN(C)CCCNc2cccc3c2C(=O)c2cccc(c2C3=O)NCCC1 is recorded as -0.803 (SAS; RNA-Seq, refers to: GNAI1 mRNA; 1 µM, 6 h; relative to: untreated cells).
For O=C(C[Se]C(=O)c1cccnc1Nc1cccc(C(F)(F)F)c1)Nc1cccc(C(F)(F)F)c1, the GI50 was 1820 nM (NCI60 ovarian subpanel; cell growth, inhibitor; five-dose).
COc1ccc(CC[C@H]2OC(=O)[C@@H]3CCCCN3C(=O)C(=O)C(C)(C)COC(=O)C=CCCN(C)C(=O)[C@H](CC(C)C)N(C)C(=O)[C@H]3CCCN3C(=O)[C@H](Cc3ccccc3)N(C)C(=O)[C@H](Cc3ccccc3)NC(=O)CCC(=O)Nc3cccc2c3)cc1OC has an IC50 of 377 ± 43 nM (HUVEC; thymidine uptake, inhibitor).
Under “dead cell to confluence ratio”, COc1ccc(NC(=O)c2ccc3[nH]c(-c4ccc(N(C)C)cc4)nc3c2)cn1 is recorded as 65.4 and 2.4 and 12.1 (HCEC-hTERT; IncuCyte; concentration not given, 22 h).
CC(=O)OC[C@H]1O[C@@H](n2cc(CSc3nc4ccccc4n3Cc3cn([C@@H]4O[C@H](COC(C)=O)[C@@H](OC(C)=O)C(OC(C)=O)[C@H]4OC(C)=O)nn3)nn2)[C@H](OC(C)=O)C(OC(C)=O)[C@@H]1OC(C)=O (stereo in doubt) has a cytotoxicity of -0.0465% (HEK293; MTT; 7.81 ppm).
With COc1ccccc1-c1ccncc1C(=O)Nc1nnc(OCc2ccc(Cl)cc2)s1 the colony count was 13.5 and 12 and 12.5 (MDA-MB-436 BRCA1-mutant; colony formation; 0.75 µM; higher = more survival).
C=CC(=O)N1[C@H](c2ccc3c(c2)OCO3)c2[nH]c3ccccc3c2C[C@@H]1C(=O)NC1CC1: “mean neuron degeneration” 22.1% (rat DRG neurons; 1.111 µM, 48 h, added: vincristine 40 nM).
C=CC(=O)Nc1cccc(Cn2ncc3cnc(Nc4cnn(CCOC)c4)nc32)c1 has a binding of 7.7% (human ABL1(Y253F)-phosphorylated; KINOMEscan; 100 nM; relative to: control).
CCCCCCc1cccc([C@H](O)C[C@H](CO)NC(=O)CCCCCCCCCCBr)c1 gave a ceramide level of 12500 pmol/sample and 10800 pmol/sample and 13400 pmol/sample (HeLa; CERT activity, HPLC-MS/MS lipidomics, refers to: ceramide 24; 1 µM, 24 h, not cell-number normalised).
COc1ccc(CN2CC(COc3cccc(F)c3)CC(F)(F)C2)cc1F (centres unmarked) has a Ki of 1280 nM (DRD4; ligand displacement, radioligand; cell membranes).
COC1CN([C@H]2CC[C@H]([C@@]3(C)Oc4c(Cl)cc(C(=O)NCc5c(SC)cc(C)[nH]c5=O)c(C)c4O3)CC2)C1 — result for “log2 fold change”: 1.2 (RNA-seq, refers to: HDAC11; human, whole blood; dose not given, 24 h; relative to: pretreatment baseline).

For quick reference, copied from above:
The inhibition of Nc1ncn([C@@H]2O[C@H](CO)[C@@H](O)[C@H]2O)c(=O)n1 is reported as 0% (AML blasts, primary, RUNX1-mutated; CD34+ blast expansion; 90 nM, HUVEC co-culture).
Under “log2 fold change”, CN1CCCNC(=O)c2cccc(c2)C(=O)NCCCN(C)CCCNc2cccc3c2C(=O)c2cccc(c2C3=O)NCCC1 is recorded as -0.803 (SAS; RNA-Seq, refers to: GNAI1 mRNA; 1 µM, 6 h; relative to: untreated cells).
For O=C(C[Se]C(=O)c1cccnc1Nc1cccc(C(F)(F)F)c1)Nc1cccc(C(F)(F)F)c1, the GI50 was 1820 nM (NCI60 ovarian subpanel; cell growth, inhibitor; five-dose).
COc1ccc(CC[C@H]2OC(=O)[C@@H]3CCCCN3C(=O)C(=O)C(C)(C)COC(=O)C=CCCN(C)C(=O)[C@H](CC(C)C)N(C)C(=O)[C@H]3CCCN3C(=O)[C@H](Cc3ccccc3)N(C)C(=O)[C@H](Cc3ccccc3)NC(=O)CCC(=O)Nc3cccc2c3)cc1OC has an IC50 of 377 ± 43 nM (HUVEC; thymidine uptake, inhibitor).
Under “dead cell to confluence ratio”, COc1ccc(NC(=O)c2ccc3[nH]c(-c4ccc(N(C)C)cc4)nc3c2)cn1 is recorded as 65.4 and 2.4 and 12.1 (HCEC-hTERT; IncuCyte; concentration not given, 22 h).
CC(=O)OC[C@H]1O[C@@H](n2cc(CSc3nc4ccccc4n3Cc3cn([C@@H]4O[C@H](COC(C)=O)[C@@H](OC(C)=O)C(OC(C)=O)[C@H]4OC(C)=O)nn3)nn2)[C@H](OC(C)=O)C(OC(C)=O)[C@@H]1OC(C)=O (stereo in doubt) has a cytotoxicity of -0.0465% (HEK293; MTT; 7.81 ppm).
